# Results from different studies.
# Parts stem from different laboratories: compare values within a part only.

# Study 1
# Target: Histone acetyltransferase KAT6A, winged helix 2, GST fusion (KAT6A, Homo sapiens, UniProt Q92794, residues 85-181)
# Method: protein binding microarray
# Molecule type: double-stranded DNA, one strand shown
# Sample: in vitro
# Tested at: not given
# Setting: 8-mer, flanks averaged, mean of 2 arrays, mostly near background
# Baseline: not given
# Direction: higher = stronger binding
# Residues (chain): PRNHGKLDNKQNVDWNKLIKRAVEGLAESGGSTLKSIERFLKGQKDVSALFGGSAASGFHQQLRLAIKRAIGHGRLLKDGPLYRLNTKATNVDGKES
Oligonucleotide,E-score
ACGTTACT,-0.194
GATCTACC,0.102
ATGTACAA,-0.122
ACTTCCTG,-0.177
CACTTGTC,-0.153
GCATACGA,0.0265
CATATAAA,0.0828
CAGCCCCG,0.0568

# Study 2
# Substance: PhoQ, residues 284 288 289 292 302 303 WVSSAF
# Method: Sort-seq
# Item: YFP reporter
# Sample: E. coli
# Setting: PhoQ-PhoP variant library
# With: 10 µM Mg2+
# Baseline: high Mg2+ state
# Direction: higher = stronger signaling
target,fold induction
"PhoP, residues 12 14 15 18 19 LHTVL (Escherichia coli, UniProt P23836)",1.08
"PhoP, residues 12 14 15 18 19 TQAML (Escherichia coli, UniProt P23836)",15.9
"PhoP, residues 12 14 15 18 19 NQCAL (Escherichia coli, UniProt P23836)",18.9

# Study 3
# Target: Ras GTPase-activating protein-binding protein 1, C-terminal RGG region (G3BP1, Homo sapiens, UniProt Q13283)
# Sequence of UniProt Q13283 (whole entry, looked up): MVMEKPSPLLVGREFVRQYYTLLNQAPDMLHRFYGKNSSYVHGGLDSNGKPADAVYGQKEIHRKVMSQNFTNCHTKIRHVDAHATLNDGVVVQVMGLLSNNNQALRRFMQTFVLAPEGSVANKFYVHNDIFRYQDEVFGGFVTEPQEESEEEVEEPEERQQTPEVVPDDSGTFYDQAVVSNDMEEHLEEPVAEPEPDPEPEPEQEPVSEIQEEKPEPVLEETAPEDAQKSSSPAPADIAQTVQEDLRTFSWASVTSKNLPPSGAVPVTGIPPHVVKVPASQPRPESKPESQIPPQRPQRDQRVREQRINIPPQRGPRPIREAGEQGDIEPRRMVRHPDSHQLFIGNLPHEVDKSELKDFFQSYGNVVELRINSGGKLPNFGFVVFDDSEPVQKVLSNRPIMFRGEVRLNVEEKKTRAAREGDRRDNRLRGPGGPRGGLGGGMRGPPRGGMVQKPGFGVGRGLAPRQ
# Method: RNA Bind-n-Seq
# Molecule type: RNA
# Sample: in vitro
# Tested at: 1 µM
# Setting: whole 134-nt RNA, ends assumed
# With: 150 mM KCl
# Baseline: input library
# Direction: higher = stronger binding
Oligonucleotide,log2 enrichment
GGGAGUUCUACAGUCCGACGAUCCACAGACAACACGCACCCACACAGACACAGAGGGAAGGGGUUGGGAUGGGGACAGGGUCCACAGCAGGGCGGGGUAGGACCCCAGCCCCUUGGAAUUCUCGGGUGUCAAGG,-0.521
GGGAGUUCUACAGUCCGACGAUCAAGUCCUGUGCUACACAUCGUAUGUACCGAAUCGGGGAAAGGAAAGGGGAAAGGGGAAAGUAUUAUGUUACGCCGUUCGGAUCUGCACUUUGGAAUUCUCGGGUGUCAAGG,-0.243
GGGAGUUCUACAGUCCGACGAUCCCUGUGCUACACAUCGUAUGUACCGAAUCGGGGAGGGGUUUUUUUGGGGUUUUUUUGGGGAAAGUAUUAUGUUACGCCGUUCGGAUCUGCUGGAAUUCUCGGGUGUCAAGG,0.0662
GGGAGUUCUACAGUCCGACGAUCAGCAUGCAGGUGGGCAUCUUUGGGAAGUGGGGCAAGGGGGGGAUAGGGAGGGGGGUAACACUUUGGGAACAGGUGGUCCCAGGUCGUUUCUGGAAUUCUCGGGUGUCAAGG,-1.15
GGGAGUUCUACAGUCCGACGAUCACCAUGCAGGUGGGCAUCUUAGGGAAGUGGGGCAAGGGGGGGAUAGGGAGGGGGGUAACACUUUGGGAACAGGUGGUCCCAGGUCGUUUCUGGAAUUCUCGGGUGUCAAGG,-0.989
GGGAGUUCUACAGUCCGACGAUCACCAUGCAGGUGGGCAUCUUUGGGAAGUGGGGCAAGGGGGGGAUAGGGAGGGGGGUAACAUUUUGGGAACAGGUGGUCCCAGGUCGUUUCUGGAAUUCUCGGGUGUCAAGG,2.14
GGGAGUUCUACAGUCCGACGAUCUUACGAUUAUAUCACCCGGACACACAUCAUGCUUAAGAUUCAACUGGGAGCAUACCAGGGAUGCUCUCUAACGUAAUCAAGGGAAGGUUCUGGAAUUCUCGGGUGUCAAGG,-1.9
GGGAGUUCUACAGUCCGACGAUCAGUCCUGUGCUACACAUCGUAUGUACCGAAUCGGGGUUUGGGGAAAGGGGAAAGGGGAAAGUAUUAUGUUACGCCGUUCGGAUCUGCACUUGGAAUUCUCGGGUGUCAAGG,4.1
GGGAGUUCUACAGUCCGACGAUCUGUUGGGCUUCGAUCCCAGGUGGAUGAUGAUGCCUUCCUACAUGGACCCACGUAUCACGCCCACUCGGACCCCGGUGGACUUCUACCCCUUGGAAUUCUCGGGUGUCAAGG,0.138
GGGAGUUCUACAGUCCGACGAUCCCUGUGCUACACAUCGUAUGUACCGAAUCGGGAAAAAAGGGAAAAAAGGGAAAAAAGGGGAAAGUAUUAUGUUACGCCGUUCGGAUCUGCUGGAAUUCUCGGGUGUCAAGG,-1.56
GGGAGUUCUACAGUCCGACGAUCAAGUCCUGUGCUACACAUCGUAUGUACCGAAUCGGGAGGGUUUUUUUGGGUUUGGGAAAGUAUUAUGUUACGCCGUUCGGAUCUGCACUUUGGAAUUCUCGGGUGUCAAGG,0.0871

# Study 4
# Target: Interferon regulatory factor 5, full length, phosphomimetic (IRF5, Homo sapiens, UniProt Q13568-2, residues 1-514, K96S/S451D/S453D/S456D/S462D)
# Method: protein-binding microarray
# Molecule type: double-stranded DNA, one strand shown
# Sample: in vitro
# Tested at: 250 nM
# Setting: 60-bp whole probe
# With: salmon DNA 0.4 mg/ml
# Baseline: random background probes
# Direction: higher = stronger binding
# All sequences stand within: GCCTAGCAC … GTCTTGATTCGCTTGACGCTGCTG
Oligonucleotide,log fluorescence
TTAGAACTGGGGACTGGACTAGTGCTA,-0.249 z-score
GACGGTCTCCTTCTCCTGGCGTGCTAG,0.16 z-score
TTAGATTACGGGTTTCGATTAGTGCTA,6.53 z-score
GACGATAGCAGTATCGAGACGTGCTAG,2.27 z-score
TCATTTTTCTAACCCATACTGTGCTAG,0.698 z-score
TAAGATATCAGTCTCGATTAGTGCTAG,1.75 z-score
TTAGGACTGCTTATCCTTAAGTGCTAG,-0.0883 z-score
TTAGGTATCGACACTGGGTTCGTGCTA,2.36 z-score
TCAATGTTCCCTATATAACTGTGCTAG,0.586 z-score
TTAGGTTTCCTTTCCTTTTAGTGCTAG,1.87 z-score

# Repeated from above (study 4):
Oligonucleotide,log fluorescence
TTAGAACTGGGGACTGGACTAGTGCTA,-0.249 z-score
GACGATAGCAGTATCGAGACGTGCTAG,2.27 z-score
GACGGTCTCCTTCTCCTGGCGTGCTAG,0.16 z-score
TCATTTTTCTAACCCATACTGTGCTAG,0.698 z-score
